Measured values from different studies.
Every numbered part comes from another study and shows a few of its results, in no order. Positions count from the first letter of the parent shown.
Chain of UniProt Q969T4 (whole entry, looked up): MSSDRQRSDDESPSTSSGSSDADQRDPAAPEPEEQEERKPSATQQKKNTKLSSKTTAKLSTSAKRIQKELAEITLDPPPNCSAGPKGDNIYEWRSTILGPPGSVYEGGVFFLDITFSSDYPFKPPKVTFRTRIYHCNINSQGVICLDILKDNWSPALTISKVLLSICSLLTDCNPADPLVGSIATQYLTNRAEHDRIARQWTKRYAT
Chain of UniProt P51668 (whole entry, looked up): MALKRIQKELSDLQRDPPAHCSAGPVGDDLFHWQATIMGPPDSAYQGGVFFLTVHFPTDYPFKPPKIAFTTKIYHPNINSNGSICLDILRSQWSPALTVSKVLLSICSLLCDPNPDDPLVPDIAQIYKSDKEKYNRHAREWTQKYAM
Chain of UniProt P68036 (whole entry, looked up): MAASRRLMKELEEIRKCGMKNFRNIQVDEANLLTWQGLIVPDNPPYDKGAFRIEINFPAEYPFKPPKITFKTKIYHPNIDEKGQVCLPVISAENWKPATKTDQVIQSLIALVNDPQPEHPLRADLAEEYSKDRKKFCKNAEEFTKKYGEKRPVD
Chain of UniProt P63146 (whole entry, looked up): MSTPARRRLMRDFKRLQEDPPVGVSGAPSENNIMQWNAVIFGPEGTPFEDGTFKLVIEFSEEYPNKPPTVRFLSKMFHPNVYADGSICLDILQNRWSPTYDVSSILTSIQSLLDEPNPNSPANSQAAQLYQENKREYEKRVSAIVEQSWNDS
Chain of UniProt Q9Y385 (whole entry, looked up): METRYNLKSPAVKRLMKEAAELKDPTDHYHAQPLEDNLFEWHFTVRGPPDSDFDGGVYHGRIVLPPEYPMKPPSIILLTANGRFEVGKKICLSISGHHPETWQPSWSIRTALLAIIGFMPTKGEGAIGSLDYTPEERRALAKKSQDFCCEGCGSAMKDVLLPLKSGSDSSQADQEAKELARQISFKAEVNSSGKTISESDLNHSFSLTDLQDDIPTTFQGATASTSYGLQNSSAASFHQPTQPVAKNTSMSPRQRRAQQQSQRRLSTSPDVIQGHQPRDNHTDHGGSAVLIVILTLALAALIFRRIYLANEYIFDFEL
Chain of UniProt Q712K3 (whole entry, looked up): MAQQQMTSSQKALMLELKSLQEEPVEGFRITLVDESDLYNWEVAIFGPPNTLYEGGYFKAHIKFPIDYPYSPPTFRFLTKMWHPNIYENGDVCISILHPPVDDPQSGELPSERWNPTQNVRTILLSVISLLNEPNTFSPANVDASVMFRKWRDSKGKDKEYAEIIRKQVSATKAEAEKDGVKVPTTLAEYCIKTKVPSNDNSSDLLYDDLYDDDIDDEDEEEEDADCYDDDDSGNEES
Chain of UniProt Q9H832 (whole entry, looked up): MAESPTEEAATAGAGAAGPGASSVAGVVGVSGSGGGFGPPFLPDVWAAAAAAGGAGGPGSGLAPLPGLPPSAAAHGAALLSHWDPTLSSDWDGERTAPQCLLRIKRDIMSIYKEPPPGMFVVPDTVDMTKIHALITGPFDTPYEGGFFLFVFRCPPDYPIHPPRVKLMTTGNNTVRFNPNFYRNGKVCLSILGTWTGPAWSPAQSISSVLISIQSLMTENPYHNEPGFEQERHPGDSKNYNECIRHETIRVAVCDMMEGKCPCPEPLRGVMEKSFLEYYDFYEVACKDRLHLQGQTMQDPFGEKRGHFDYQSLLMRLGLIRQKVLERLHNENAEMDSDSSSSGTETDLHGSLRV

Set 1 — target: CCNA2, cyclin fold, Cln2 fusion (human); technique: yeast growth competition, sequencing; sample: yeast; notes: strong parent motif; reference: not given; direction: higher = stronger binding
Starting sequence: CDC25A docking peptide (human); PPHRRRLLFACSP
Change	normalised enrichment score
R6N	1.46
R4T	1.55
R4Y	1.66
R5A	1.96
P13M	1.78
C11N	2.55
P2G	3.27
L8F	2.71
P13L	2.27
F9H	0.984
R6V	1.46
S12N	2.99
L8N	4.04
R4A	3.43
R4S	1.18
R5Q	1.11
P2V	2.18
R5P	0.0228
P1M	2.16
P1R	2.69
P2H	2.82

Set 2 — technique: DHFR PCA, deep sequencing; sample: yeast; together with: (+)-ABA 710 µM; reference: wild-type fitted maximum; direction: higher = stronger binding
Target: ABI1, truncated, D143A, DHFR fusion (Arabidopsis thaliana)
Notes: methotrexate growth selection, single substitutions
Starting sequence: PYL1, truncated, DHFR fusion (Arabidopsis thaliana); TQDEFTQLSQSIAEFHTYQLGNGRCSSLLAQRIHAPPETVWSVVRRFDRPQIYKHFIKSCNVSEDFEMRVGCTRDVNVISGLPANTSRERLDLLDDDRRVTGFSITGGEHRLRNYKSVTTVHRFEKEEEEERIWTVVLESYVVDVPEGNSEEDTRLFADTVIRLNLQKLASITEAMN
Change	relative binding score
R49T	102%
D75T	97.3%
E125M	105%
W41P	9.22%
Q167P	-8.14%
V118D	10.7%
Y115A	-4.63%
K58L	93.3%
Q51E	93.1%
V78M	97.3%
R45K	99.3%
F56H	65.3%
R113E	106%
H16T	18%
R74N	-8.73%
Q19I	102%
E128C	109%
I79L	89.3%
I105D	2.16%
N165Y	53.5%
N114H	99.2%
P36N	102%
E109Y	91%
L112G	-1.75%
R123C	99%

Set 3 — technique: protein binding microarray; molecule type: double-stranded DNA, one strand shown; sample: in vitro; tested at: not given; reference: not given; direction: higher = stronger binding
Target: Histone acetyltransferase KAT6A, winged helix 2, GST fusion (KAT6A, Homo sapiens, UniProt Q92794, residues 85-181)
Notes: 8-mer, flanks averaged, mean of 2 arrays, mostly near background
Construct (chain): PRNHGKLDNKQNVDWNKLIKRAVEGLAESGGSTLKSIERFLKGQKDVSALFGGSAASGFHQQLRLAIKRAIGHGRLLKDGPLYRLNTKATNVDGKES
Strand	E-score
CGTAGGCC	-0.0278
CTATGGAC	-0.163
ATGTACTC	-0.187
AAAATTAG	0.256
GGCTTTTA	-0.132
CACTTTGA	-0.123
CTGTCGTC	0.113
CCGGACTA	-0.0183
ACCACCCT	-0.162
ACGCGCTA	-0.119
AGCACCTA	-0.123
ACACGTAC	-0.226
GTACCGTA	-0.16
CATAGCCG	0.0826
CCTTCGCC	0.0196
CCTTTGAG	-0.041

Set 4 — technique: yeast two-hybrid; sample: yeast; notes: mostly zero background; reference: not given; direction: higher = stronger interaction
Sequence: SNNDLASLFECPVCFDYVLPPILQCQSGHLVCSNCRPKLTCCPTCRGPLGSIRNLA (SIAH1 RING domain (UniProt Q8IUQ4))
target	lacZ reporter activity
UBE2R2 UBC core domain (UniProt Q712K3)	0
UBE2Z UBC core domain (UniProt Q9H832)	7210
UBE2L3 UBC core domain (UniProt P68036)	0
UBE2B UBC core domain (UniProt P63146)	0
UBE2J1 UBC core domain (UniProt Q9Y385)	0
BIRC6 UBC core domain (UniProt Q9NR09)	0
UBE2D1 UBC core domain (UniProt P51668)	2740
UBE2E3 UBC core domain (UniProt Q969T4)	0

Set 5 — technique: RNA Bind-n-Seq; molecule type: RNA; sample: in vitro; tested at: 365 nM; reference: no-protein control; direction: higher = stronger binding
Target: RNA binding protein fox-1 homolog 2, RRM domain, GST-SBP tag (RBFOX2, Homo sapiens, UniProt O43251-10, residues 100-194)
Notes: natural RNA segment, single round, ends assumed
Residues (chain): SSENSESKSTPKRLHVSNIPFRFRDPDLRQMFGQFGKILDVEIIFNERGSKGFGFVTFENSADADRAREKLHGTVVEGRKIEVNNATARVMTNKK
Strand	RBNS enrichment (R)
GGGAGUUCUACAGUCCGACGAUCUUUUGGAUACUAGAAGUAUUAAUCUAUGGCUUUUCUCCCAGUAAAACCAUAGGCCUGAAGUUCACAUUGGGUCUUUAAAUCUUUUAGAUAUAUACUGGUCAUUUCAGAAAUGGAAUUCUCGGGUGCCAA	0.319
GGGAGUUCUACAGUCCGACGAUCACAGGCGUGUGCCAGCGCGCCUGGCUAAUUUUAAAAUUUUUUUGUAGAGACAGAGUCUCCCUCUGUUGCCCAGGCUGGUCUGGAACUCCUAGCUUCAAAUGAUCCUCUCAUGGAAUUCUCGGGUGCCAA	0.424
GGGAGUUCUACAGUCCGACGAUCAAAGGCAGCAAGCAGAUAGACUCAAGGUGUGUGAAAGAUGUUAUACACCAGGAGCUGCCACUGCAUGUCCCAACCAGACUGUGUCUGUCUGUGUCUGCAUGUAAGAGUGAUGGAAUUCUCGGGUGCCAA	11.4
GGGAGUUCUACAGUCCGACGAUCACUUAAUGGUGCUUAAAAAUCGGGGCACUUAAAAUAAGUUUACGGCCAAAGGUGCAGCAGUGCUUAUCACAUCCACAUACUAAGAGAUUGGUCUUAGUGCGUUUGUGCCCUGGAAUUCUCGGGUGCCAA	0.328
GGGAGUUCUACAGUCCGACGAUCCUGCUAAUUGUCGAGAGAGAAUUCAGUUGUGUGCUGUCUGGCUGCUGUGCCUUCUCAGCAGCACUUUUGCUGUACAUACAAUGGAAAUAAAGACCUCAGCUAGAAACCUGUGGAAUUCUCGGGUGCCAA	0.399
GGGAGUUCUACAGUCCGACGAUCUGUCCUGAAGUUCUAACUGCCGAGCCUUACCUUCAUAGAAGGUCUUCACUGCCAGAGUGGGCAUCUUGCAUAGUAAGGGAUUCCAGAUUAGAUAUGAGUUGAGCACCCUGUGGAAUUCUCGGGUGCCAA	0.514
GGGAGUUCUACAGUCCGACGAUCAACAGUAAUGGGGCUAAAGGGGCAGUGAGCUCCAAACAGUCACAGAGUGAGGAGUCUUCUGAGCUCCCUGGCUAAGUGCAGCGUGCUAGCAGACAGGCAGGGGAUGCAAAUGGAAUUCUCGGGUGCCAA	0.246
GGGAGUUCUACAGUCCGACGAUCAUAUACUUUCUGUUAUUCCAAAAUGUCAUCAUUAGGGAAGCCACUAAGAGUUUGGAAAUAGGGGCUGGAGAGAUGCCUCUGUGGUUAAGAGCAUUGGCUGCUCCUCUAGAUGGAAUUCUCGGGUGCCAA	0.305

Excerpt of the above (set 1):
Change	normalised enrichment score
L8F	2.71
R5P	0.0228
R4T	1.55
C11N	2.55
R5Q	1.11
L8N	4.04
P13M	1.78
R6V	1.46
P2V	2.18
F9H	0.984
P1M	2.16
R5A	1.96
